# Results pooled from the literature.
# Every numbered part comes from another study and shows a few of its results, in no order. Positions count from the first letter of the parent shown.

# Series 1 — method: universal PBM; form: double-stranded DNA, one strand shown; medium: in vitro; tested at: 600 nM; direction: higher = stronger binding
# Target: Sal-like protein 4, full length isoform A (SALL4, Homo sapiens, UniProt Q9UJQ4, residues 1-1053)
# Sequence of UniProt Q9UJQ4 (whole entry, looked up): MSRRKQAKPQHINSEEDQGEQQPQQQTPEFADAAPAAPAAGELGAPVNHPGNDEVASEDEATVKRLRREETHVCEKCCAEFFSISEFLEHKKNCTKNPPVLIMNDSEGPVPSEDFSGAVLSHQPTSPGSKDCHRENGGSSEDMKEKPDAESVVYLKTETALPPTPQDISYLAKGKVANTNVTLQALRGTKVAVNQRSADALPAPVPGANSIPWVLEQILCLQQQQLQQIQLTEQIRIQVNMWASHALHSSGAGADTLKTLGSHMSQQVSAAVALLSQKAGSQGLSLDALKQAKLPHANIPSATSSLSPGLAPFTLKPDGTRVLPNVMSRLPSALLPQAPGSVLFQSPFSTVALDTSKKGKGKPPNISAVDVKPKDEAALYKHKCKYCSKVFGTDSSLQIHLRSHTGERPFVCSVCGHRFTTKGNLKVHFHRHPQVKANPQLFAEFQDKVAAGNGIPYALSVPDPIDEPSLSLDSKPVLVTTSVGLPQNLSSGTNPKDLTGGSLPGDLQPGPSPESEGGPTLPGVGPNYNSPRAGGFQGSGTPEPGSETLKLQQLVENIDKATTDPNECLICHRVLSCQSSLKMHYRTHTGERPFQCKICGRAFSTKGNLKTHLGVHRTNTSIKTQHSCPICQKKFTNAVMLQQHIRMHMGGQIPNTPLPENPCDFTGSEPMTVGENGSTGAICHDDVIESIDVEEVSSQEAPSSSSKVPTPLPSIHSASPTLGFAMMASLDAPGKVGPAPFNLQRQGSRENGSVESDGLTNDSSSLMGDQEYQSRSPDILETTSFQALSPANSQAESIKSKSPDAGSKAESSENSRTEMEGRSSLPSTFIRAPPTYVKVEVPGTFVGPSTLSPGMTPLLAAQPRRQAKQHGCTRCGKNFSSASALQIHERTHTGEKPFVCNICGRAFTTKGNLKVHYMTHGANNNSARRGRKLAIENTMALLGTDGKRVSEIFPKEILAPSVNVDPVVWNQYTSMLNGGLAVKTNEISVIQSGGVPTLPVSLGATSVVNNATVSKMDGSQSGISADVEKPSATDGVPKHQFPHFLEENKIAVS
# Setting: 8-mer, flanks averaged, mean of replicates
Strand,E-score
CTTAGGCC,-0.271
AAGTCCCT,-0.00726
ATGGGCAA,0.038
TCCTAAAA,0.165
ATTGTCAA,0.24
AAAGCTCA,-0.00179
TAAATTCA,0.285
GCAAGAGC,-0.179
GAACCCGC,-0.293
ACACAGGC,0.0187
ATATGCAT,0.325
CAACCTAA,0.0339
CGAAGCGA,-0.248
AAGATCGC,-0.121
AAGACAGG,0.036
TCTACGCA,0.084
TTCATAAA,0.419
CGTCAGAA,-0.0421
CAGTGGCC,-0.306
CCGCATTA,0.0463
AGGAAGCA,-0.108
ACAATACT,0.26
GTGGAGAA,-0.0209
TACATGGA,0.147
CGCTCAAA,-0.144

# Series 2 — method: RNA Bind-n-Seq; form: RNA; medium: in vitro; tested at: not given; reference: input RNA pool; direction: higher = stronger binding
# Target: RING finger protein unkempt homolog, zinc fingers 1-6, GST-SBP tag (UNK, Homo sapiens, UniProt Q9C0B0, residues 30-357)
# Sequence of UniProt Q9C0B0 (30-357, looked up): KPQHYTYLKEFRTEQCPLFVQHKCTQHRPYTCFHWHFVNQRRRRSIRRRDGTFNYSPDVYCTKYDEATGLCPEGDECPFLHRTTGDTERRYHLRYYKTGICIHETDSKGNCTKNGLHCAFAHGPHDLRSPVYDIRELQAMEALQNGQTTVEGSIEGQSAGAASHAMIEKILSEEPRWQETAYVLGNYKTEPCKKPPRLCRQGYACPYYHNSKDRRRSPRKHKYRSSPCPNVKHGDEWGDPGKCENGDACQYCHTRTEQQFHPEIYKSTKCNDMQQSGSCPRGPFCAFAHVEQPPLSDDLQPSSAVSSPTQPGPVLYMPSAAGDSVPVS
# Setting: RNA with constant flanks, human-mouse chimeric sites, ends assumed
Strand,bound/input enrichment [ratio]
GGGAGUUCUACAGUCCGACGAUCUUACCCGAAAAUGAAGAUGAGCUGGAGAGCACCAACAGGCGCUACACCAAGAGGGACUGUAGCACUUUCCUCAGAACUAGUGAGACGGGCAUCGUGGACCAGGUCAUGGUCACUCUCAACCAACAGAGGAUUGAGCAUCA,0.294
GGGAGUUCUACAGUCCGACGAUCUAUAAUAAUCAUGAAAUUCGUUCCGGGAAGCACAUUGGUGUCUGCAUCUCAGUUGCCAACAAUAGGCUUUUUGUGGGCUCUAUUCCUAAGAGUAAAACCAAGGAGCAGAUUCUUGAGGAACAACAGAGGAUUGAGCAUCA,0.842
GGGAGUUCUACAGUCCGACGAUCAAUGUUCUUAAUAUUUUUGAAUAAAUGAAGCUAAAAUGUCUGCUUUUGGUACUACAUGCAUUAAUAAAAGGUUAAGUUUUGUUUUCCACUGAAGUACUAUUUAACAUCUCAGAAAAAAACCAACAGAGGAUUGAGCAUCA,0.204
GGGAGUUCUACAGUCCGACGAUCGCAGGAUCUUCUAAAUACCAGUGGGACAUUAUGAAAUCCCUUGGGCUCUCUGAUGACGACAUAGUGAAAUUUUCUGAAGCAGAGCACUGGCUUGAUUAUUUCCCACCACUGGCCGUUCAGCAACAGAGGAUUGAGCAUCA,0.261
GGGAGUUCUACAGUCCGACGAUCGAUAAGAAAAGCUUGUUGGAGACCCGCUUGCACAUCACUGGUAGAGACCUGAGGUGUCAAAUAGCUGAAACCUUUGGAUUUCAAGAAAAUUACAUCAAGAUCGUAAUAAAUAAGAAACAGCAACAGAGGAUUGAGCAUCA,0.271
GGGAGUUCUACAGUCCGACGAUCUCUUAACUUAUUCAUUUAACUUAUUUUUAUAGCUAGAGCAAUAUUGUUAGUCUUAGAGAGUAGUUCACAUUUUUUGAGAAGCAUGCCCUCCCUGUCCAUUUGUCUUAUAACAUGACCCAGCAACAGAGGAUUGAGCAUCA,20.7
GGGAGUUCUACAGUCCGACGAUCGAUAAGAAAAGCUUGUUGGAGACCCGCUUGCAUGUCACUGGUAGAGACCUGAGGUGUCAAAUAGCUGAAACUUUCGGACUUCAAGAAAAUUACAUCAAGAUCGUAAUAAAUAAGAAGCAGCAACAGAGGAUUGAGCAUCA,0.461
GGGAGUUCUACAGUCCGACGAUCUCUUUAAAAAAAAAAUUACCUUUUCUGACAGUGCUUUCCCUCCCAUAGAUCCACGUUCAAGCUCAAAGGCCAAAACUUUUGCACGGAGCUCAAACAUAAAAGAAAGAAAGAUUUCUGAGACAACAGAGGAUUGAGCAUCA,0.503
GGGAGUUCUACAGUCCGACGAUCCAGGGCAUCAUCUCUCGUGCUGUUAGACACCUGUUCAAGAGUAUUGAUGAGAAAAAGCACAUAGCAAUUAAAAACGGGCUGCCCCCUCCUGAAUUCAAAGUGAAUGCCCAAUUCUUAGAGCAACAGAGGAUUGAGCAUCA,2.33
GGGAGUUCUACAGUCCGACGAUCCGCUGGCCCAAGCUGAUGUAAAUGUUUGGCCUCCAUCUCUCAGGCACGUGUGCCUUCUCUUAGUUAUUGUUUUCGGGAUGUUAUGAAUCUCAGUACUGUGGUUUGAAAGCACCAGCUUUGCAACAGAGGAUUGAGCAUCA,8.79
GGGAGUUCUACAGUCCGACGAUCAAAAUAGACUAUGGUGAGUACAUGGAUAAAAACAAUGUGAGGCGGCAAGCAACAACAAUCAUAGCUGAUAACAUUAUAUUUCUGAGUGACCAGACAAAAGAAAAGGCAUAGAACGGAUGACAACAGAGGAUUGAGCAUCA,3.1

# Series 3 — method: protein-binding microarray; form: double-stranded DNA, one strand shown; medium: in vitro; tested at: 2540 nM top; setting: 60-bp whole probe; together with: salmon DNA 0.4 mg/ml; reference: random background probes; direction: higher = stronger binding; all sequences stand within: GCCTAGCAC … GTCTTGATTCGCTTGACGCTGCTG
# Target: Interferon regulatory factor 3, full length, phosphomimetic (IRF3, Homo sapiens, UniProt Q14653, residues 1-427, S386D/S396D/S398D/S402D/T404D/S405D)
# Residues (chain): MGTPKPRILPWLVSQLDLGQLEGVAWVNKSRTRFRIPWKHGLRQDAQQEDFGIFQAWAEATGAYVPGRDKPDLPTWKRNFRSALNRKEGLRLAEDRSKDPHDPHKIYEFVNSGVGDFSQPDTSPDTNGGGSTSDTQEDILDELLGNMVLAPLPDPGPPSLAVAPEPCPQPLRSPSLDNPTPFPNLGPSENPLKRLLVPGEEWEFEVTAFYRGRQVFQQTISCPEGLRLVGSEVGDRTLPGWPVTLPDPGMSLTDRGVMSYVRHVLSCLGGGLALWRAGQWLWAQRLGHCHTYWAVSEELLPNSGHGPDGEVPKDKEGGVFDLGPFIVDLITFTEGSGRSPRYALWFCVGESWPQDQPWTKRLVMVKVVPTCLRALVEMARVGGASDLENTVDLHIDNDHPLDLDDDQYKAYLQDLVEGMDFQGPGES
Strand,fitted relative affinity [z-score]
GACGATATCGGGGCTGGAGACGTGCTA,-0.351
TCAGATCTCCGAGATGCCACTGTGCTA,0.696
TACGGTCTCGGTTTCGGGACGTGCTAG,4.01
GACGGACTGGGGTTTCGTGACGTGCTA,-0.367
TTAGATTACGGGTTTCGATTAGTGCTA,1.75
GACGATATCGGGACTGGACACGTGCTA,0.13
TCATGTTTGGGCATTTTTACTGTGCTA,-0.281
GACGGTCTCGGTCTCGAGACGTGCTAG,1.59
TGCTTCCTAATTCTCTTTTCGTGCTAG,1.52
TCAGTCCTCACTTCCTTCTGGTGCTAG,0.359
TCAAATCTGTGTTATTAAACTGTGCTA,-0.0345
TTAGGTATCCTTATCCTTTTGTGCTAG,5.32
GAGTGTTTCTTCTGCTGACAGTGCTAG,0.76
GACGGACTGGGTCTCGGGAAGTGCTAG,-0.953
GACGGTTTCGACTTTCAGGACGTGCTA,4.05
TTAGGTATCCGTATCCTTTAGTGCTAG,4.62
TTAGATCTCAGCTTCGATTAGTGCTAG,0.167
TTAGATCTAAGTCTCGATTAGTGCTAG,0.0434
TTAGGACTGGGGACTGAGTTAGTGCTA,-0.978
TTAGGACTGGATTTTCGGTTAGTGCTA,0.663
GCCGGTTTCGGGACTGGGGACGTGCTA,4.89
GATGAACTGAGACTGGAGACGTGCTAG,-0.508
TTAGGACTGGGGTATTGGTTAGTGCTA,-0.984
TCAAAAATCCCATTAAAACTGTGCTAG,0.864
GACAGTTTCGGACTGGGGACGTGCTAG,4.27

# Series 4 — method: protein binding microarray; form: double-stranded DNA, one strand shown; medium: in vitro; tested at: not given; reference: not given; direction: higher = stronger binding
# Target: Histone acetyltransferase KAT6A, winged helix 1, GST fusion (KAT6A, Homo sapiens, UniProt Q92794, residues 1-85)
# Setting: 8-mer, flanks averaged, mean of 2 arrays, mostly near background
# Target sequence (chain): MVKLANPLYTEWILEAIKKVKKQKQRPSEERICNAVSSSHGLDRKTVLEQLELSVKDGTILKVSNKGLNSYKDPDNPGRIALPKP
Strand,E-score
GCCGACAC,0.259
CGGCCATA,0.167
AGTCGAAA,-0.242
CGCATACC,0.258
GTCATTGA,-0.227
AGTAGATC,-0.143
CCAATTTC,-0.23
ACCTCCCC,0.0169
CTCGGCGC,0.376
CAGGAAGC,-0.174
ATCCGACC,0.0881
TAGACATA,-0.117
CTTCCAGC,0.0268
CTGCATGC,0.0111
CAACTCTG,-0.127
AGTGACGG,0.132
CGGCTCGA,0.207
CAAAGGGA,-0.158
AAACGGTT,-0.0055
CAGTCACC,0.00947
ACAGGTGC,-0.128
GAGCAGGA,-0.0433
ACTGACAG,-0.0575
AGGCGGCG,0.398
ACGCTATA,0.188

# Series 5 — target: MAFK, bZIP domain (human); method: DHFR protein complementation; medium: yeast; reference: wild-type JUN-FOS pair; direction: higher = stronger binding
# Setting: single substitutions, most at no-binding floor
# Starting sequence: JUN, bZIP domain (human); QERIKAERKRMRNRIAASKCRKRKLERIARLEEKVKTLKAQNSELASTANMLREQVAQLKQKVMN; partner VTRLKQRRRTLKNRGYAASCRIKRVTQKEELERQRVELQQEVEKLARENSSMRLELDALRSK
Change,binding fitness [natural log]
A49G,-1.44
I28L,-1.51
E54V,-1.4
A49P,-1.51
L45K,-1.51
N42Q,-1.39
K34H,-1.52
I28T,-1.51
N42R,-1.13
E54K,-1.44
E54S,-1.43
A57V,-1.5
N42S,-1.47
N42L,-1.35
M51Q,-1.38
L31D,-1.53
A46V,-1.46

# Excerpt of the above (series 3):
Strand,fitted relative affinity [z-score]
GATGAACTGAGACTGGAGACGTGCTAG,-0.508
TGCTTCCTAATTCTCTTTTCGTGCTAG,1.52
TCAGATCTCCGAGATGCCACTGTGCTA,0.696
GACGGACTGGGGTTTCGTGACGTGCTA,-0.367
TCATGTTTGGGCATTTTTACTGTGCTA,-0.281
GACAGTTTCGGACTGGGGACGTGCTAG,4.27
GAGTGTTTCTTCTGCTGACAGTGCTAG,0.76
TCAGTCCTCACTTCCTTCTGGTGCTAG,0.359
GACGATATCGGGGCTGGAGACGTGCTA,-0.351
TTAGATTACGGGTTTCGATTAGTGCTA,1.75
TTAGATCTCAGCTTCGATTAGTGCTAG,0.167
TCAAAAATCCCATTAAAACTGTGCTAG,0.864
TTAGGACTGGATTTTCGGTTAGTGCTA,0.663
TTAGGACTGGGGACTGAGTTAGTGCTA,-0.978
TTAGGACTGGGGTATTGGTTAGTGCTA,-0.984
TCAAATCTGTGTTATTAAACTGTGCTA,-0.0345
TTAGGTATCCGTATCCTTTAGTGCTAG,4.62
